Measured values gathered from unrelated publications.
Protocols differ between the studies behind these lines. “And” joins repeats or separate records; there may be more than shown.
EPHB3: Ephrin type-B receptor 3 (EPHB3, Homo sapiens, UniProt P54753)
TDP1: Tyrosyl-DNA phosphodiesterase 1 (TDP1, Homo sapiens, UniProt Q9NUW8)
UniProt Q9NUW8, sequence (whole entry, looked up): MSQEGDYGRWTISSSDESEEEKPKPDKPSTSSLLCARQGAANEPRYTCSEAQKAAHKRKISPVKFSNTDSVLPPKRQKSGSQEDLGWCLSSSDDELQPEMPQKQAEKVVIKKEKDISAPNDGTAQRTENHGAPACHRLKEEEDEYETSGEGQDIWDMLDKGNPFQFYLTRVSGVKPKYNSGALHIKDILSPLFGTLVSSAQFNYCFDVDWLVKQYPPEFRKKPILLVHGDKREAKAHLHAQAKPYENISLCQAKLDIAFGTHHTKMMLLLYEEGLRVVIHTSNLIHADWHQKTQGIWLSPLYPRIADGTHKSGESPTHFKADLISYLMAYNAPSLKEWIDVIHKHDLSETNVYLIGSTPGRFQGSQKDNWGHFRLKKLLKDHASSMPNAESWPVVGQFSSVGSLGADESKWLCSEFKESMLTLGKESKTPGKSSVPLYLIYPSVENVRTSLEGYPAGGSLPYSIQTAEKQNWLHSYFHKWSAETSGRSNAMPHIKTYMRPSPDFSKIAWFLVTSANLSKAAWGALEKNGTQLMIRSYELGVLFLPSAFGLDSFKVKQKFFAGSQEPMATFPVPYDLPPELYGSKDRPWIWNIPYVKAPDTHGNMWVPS

The remaining activity of COCC12C(=O)NC3C4(C(OC)CC1O)C1CC5(O)C(OC)C(O)C(OC(C)=O)(C1C5OC(=O)c1ccccc1)C3(O)C(OC)C24 (stereo not drawn) is reported as 111% and 116% (EPHB3; kinase activity, inhibitor, ProQinase kinase profiling; 25 µM; relative to: control).
For O=C(O)c1ccc(Nc2c(-c3ccc(CON=Cc4ccc(N5CCSCC5)cc4)cc3)nc3cc(-c4ccccc4)ccn23)cc1 (mixture of isomers), the inhibition was 43.7% (TDP1; enzyme activity, inhibitor; 100 µM, unpurified compound).
The remaining binding of Cc1ccc(-c2c(/C=C(\C#N)C(=O)NC(C)C)n(CCCO)c3ncnc(N)c23)cc1 is reported as 74% (EPHB3; cell-free assay, competition with immobilised ligand; 1 µM).
With CCn1cc(C(=O)O)c(=O)c2c(N)c(F)c(NC3CCCCC3)cc21 the inhibition was 8.6% (EPHB3; kinase activity; 0.1 µM, with: ATP at Km).
For C=CC(=O)Nc1cccc(-c2cnc3[nH]cc(C(=O)NC(C)(C)C)c3n2)c1, the inhibition was -2% and 4% (EPHB3; kinase activity; 0.1 µM).
For Cc1cccc(-c2ccc3nc(NC(=O)C4CCCO4)nn3c2)c1 (stereo not drawn), the remaining activity was 90% (EPHB3; enzyme activity, Dundee kinase panel; 10 µM).
C=CC(=O)Nc1cc(-c2nn(C3CCN(CCNC(=O)[C@H](C)CCC45CC6CC(CC(C6)C4)C5)CC3)c3ncnc(N)c23)ccc1Oc1ccccc1 has an inhibition of 2.5% (EPHB3; inhibitor, KiNativ profiling; biochemical; 2 µM).
O=C=[N][Ru-4]123([n]4c5ccc(O)cc5c5c6c(c7cc(F)c[n+]1c7c54)C(=O)NC6=O)[S+]1CC[S+]2CC[S+]3CC1 (stereo not drawn) has a remaining activity of 109% (EPHB3; enzyme activity; 100 nM, human enzyme, with: 10 µM ATP; relative to: untreated).
COc1cc(Nc2nccc(-c3cnn4nc(OC)ccc34)n2)cc(C(F)(F)F)c1 gave a remaining binding of 98% (EPHB3; binding, competition with immobilised ligand; 1 µM).
Nc1ncc(-c2cc(-c3cnn(CC(F)(F)F)c3)ncc2F)nc1C(=O)NC1CNCC(F)C1 (stereo not drawn) has a remaining activity of 97.1% (EPHB3; enzyme activity; 1 µM; relative to: DMSO control).
NC(=O)C[C@H]1CCc2sc3ncnc(O[C@H]4CC[C@H](N5CCOCC5)CC4)c3c21 has an inhibition of 6% (EPHB3; enzyme activity, inhibitor; 10 µM).
For Cc1cnc2nc1Nc1cccc(c1)COC/C=C/COCc1cc(ccc1OCCN1CCOCC1)N2, the remaining binding was 100% (EPHB3; binding; 0.1 µM).
Cc1ccc(C)c(-c2ccc3nc(NC(=O)C4CCCCC4)nn3c2)c1 has a remaining activity of 82% (EPHB3; enzyme activity, Dundee kinase panel; 10 µM).
CN1CCN(Cc2ccc(-c3ccc(CO[C@H]4CCC[C@@H]4NC(=O)c4cc(-c5cnn(C)c5)cnc4N)cc3)cc2)CC1 gave an inhibition of 2% (EPHB3; enzyme activity, inhibitor; 0.1 µM).
For COc1c(OCCCN2CCOCC2)ccc2c1N=C(NC(=O)c1cnc(N)nc1)N1CCN=C21, the remaining activity was 96% (EPHB3; kinase activity, inhibitor; 1 µM; relative to: untreated control).
With CCN1CCN(Cc2ccc(NC(=O)c3ccc(C)c(NC(=O)c4cncc(-c5cccs5)c4)c3)cc2C(F)(F)F)CC1 the remaining binding was 27% (EPHB3; binding, competition with immobilised ligand; 1 µM).
With COc1c(Cl)cccc1Nc1c(-c2ccncc2C#C[C@@]2(C)CCCN2C(=O)/C=C/CN(C)C)[nH]c2c1C(=O)NCC2 the remaining binding was 99% (EPHB3; cell-free assay, competition with immobilised ligand; 3 µM).
Under “activity vs control”, CNC(=O)C[C@H](Cc1ccc(C#N)cc1)NC(=O)c1cc(-c2ccc(CN[C@H](C)c3ccc(C)cc3)o2)ccc1Cl is recorded as 98% (EPHB3; enzyme activity, inhibitor; 1 µM).
For C=CC(=O)N1Cc2nc(-c3cc(-c4cc(Cl)cnc4Cl)c(F)cc3F)n(-c3ccncn3)c2C1, the inhibition was 3.6% (EPHB3; cell-free assay; 1 µM).
For COc1ccc(-c2ccc(C=NOCc3ccc4nc(-c5ccccc5)c(Nc5ccc(C(=O)O)cc5)n4c3)s2)cc1 (mixture of isomers), the inhibition was 42.6% (TDP1; enzyme activity, inhibitor; 100 µM, unpurified compound).
With Cc1cccc(O[C@H]2CCC[C@@H](C(C)CNCc3ccncc3)C2)c1 (relative stereo) the inhibition was -3% (EPHB3; cell-free assay; 1 µM).
